# Published values gathered from unrelated publications.
# Numbered parts are unrelated; each lists some results of a single study.

# Sample 1 — method: protein binding microarray; form: double-stranded DNA, one strand shown; medium: in vitro; tested at: not given; reference: not given; direction: higher = stronger binding
# Target: Histone acetyltransferase KAT6A, winged helix 1, GST fusion (KAT6A, Homo sapiens, UniProt Q92794, residues 1-85)
# Notes: 8-mer, flanks averaged, mean of 2 arrays, mostly near background
# Residues (chain): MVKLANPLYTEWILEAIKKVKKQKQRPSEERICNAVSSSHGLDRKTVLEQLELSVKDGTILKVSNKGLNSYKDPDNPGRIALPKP
Strand,E-score
CCCGGAGG,0.0214
GCATGCGC,0.404
CCCTTGCC,-0.0209
ATAGTGCC,-0.00962
AGTGAAAC,-0.134
ATGTGGCA,-0.0351
ACAGGGAT,-0.288
AAGAACGG,0.151
GGTTCGGA,0.0361
AAATGTCA,-0.131
ACCCGTTG,0.283
GAGCTGGA,-0.15
CTAGAACA,0.00585
AGCTTGTA,-0.256
ATGGCATC,-0.0984
TACCTACA,-0.164
CAATCCTG,-0.177
CGTGGTAG,-0.00125
CTCGATAA,-0.0897
ACGCCTAG,0.208
CTGGGATA,-0.168
AGGGGGAA,-0.059
CTCTAGGA,-0.0481
AAACACGA,-0.167
AGCTCCCT,-0.197

# Sample 2 — method: RNA Bind-n-Seq; form: RNA; medium: in vitro; tested at: 365 nM; reference: no-protein control; direction: higher = stronger binding
# Target: RNA binding protein fox-1 homolog 2, RRM domain, GST-SBP tag (RBFOX2, Homo sapiens, UniProt O43251-10, residues 100-194)
# Notes: natural RNA segment, single round, ends assumed
# Residues (chain): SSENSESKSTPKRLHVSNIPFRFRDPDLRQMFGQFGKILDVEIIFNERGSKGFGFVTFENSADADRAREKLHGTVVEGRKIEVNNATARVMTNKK
Strand,RBNS enrichment (R)
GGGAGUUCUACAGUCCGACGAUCAACCCUCACAUCAGAGUGACAUCCAGGAGGAAUAAGCUCCCAGGGCCUGUCUCAAGCUCUUCCUUACUCCCAGGCACUGUCUUAAGGCAUCUGACAUGCAUCAUCUCAUUUGGAAUUCUCGGGUGCCAA,0.944
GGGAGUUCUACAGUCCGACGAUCUCUGCUCAGCCUUGCUGGAGAUUCUGGGUGGCAGGGAUGUCCUGAUGGGACCCUCUGGAGUCCAGCCAUCCCAGGCUGUCUGCUUUCCAGGGGUUGUAUCUUCCUUCUUAUGGAAUUCUCGGGUGCCAA,1.28
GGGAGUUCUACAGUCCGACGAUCUGUGUGGCGGUAGCCCAUGUGCCUUUACCUAAUGUCAGAUUUGCAAGCGUUUCGUCUGUCUUUAUGUUAGGGGGUCUUAGGAACUUCAGAGAGAGAACUGAUAACUGGUUUGGAAUUCUCGGGUGCCAA,0.898
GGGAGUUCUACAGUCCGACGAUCUUAUAUAUAUAUAUCUAUUUAUUUUAUAUGUGUGUUUGUGAGGAAGAGGAUAUUUGUCAUUUCCUUAAGGCUCUGGAGUGUUGUGUUCGAUUCUGCACAGCCCAGCCUCCUGGAAUUCUCGGGUGCCAA,0.435
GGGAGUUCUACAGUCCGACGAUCGCUAGUCAGGAUUGAUAAACAGCUGGGCACACCGAAACAGUGUACCAACGAAUUCACCAACCAGGGGUUUCUUUCCCUACCCUUUGUGAAAACCAAUCAAUUACUAGAUGUGGAAUUCUCGGGUGCCAA,0.264
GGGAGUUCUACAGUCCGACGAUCAUCUCCACUCCCCAUGUCUCUGAGGUUCACUCCAGCCACCAUUUCUUUAGGCAGCUCUGCCUUAACCCAGGUUUCGUGUAAGAAACUUAACCUUCUCCCUUCCUACCAAUUGGAAUUCUCGGGUGCCAA,0.664
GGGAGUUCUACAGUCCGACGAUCCUCUCACUUAGACUUUGCUGUCCUCUAUGCUAACUAUGUAGAAGCUGGCUUUAGAUUAAAUGACUAUGAAGCACAAUGACAUUCUGUGGACUAAAAGUUUUUUUGUAUUUUGGAAUUCUCGGGUGCCAA,0.837
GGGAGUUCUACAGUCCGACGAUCGUGCUCUGAUAUGCUCCUUGACUGAAACUUUAAGGGGAUCUCUCCCAGAGACUUGACAUUUUAGCUUUAUUGUGUCUUAAAAACAAAAGCGAAUUAAAACACAACAAAAAUGGAAUUCUCGGGUGCCAA,0.742
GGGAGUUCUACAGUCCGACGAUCAGUGGCUCUUACAAAACUCUGUUCCCACUCCCUCUCUUGCCGACAAGGGCAACUCACGGGUGCAUGAAACCACUGGAACAUGGCCGUCGCUGUGGGGGUUUUUUUCUCUGUGGAAUUCUCGGGUGCCAA,1.88
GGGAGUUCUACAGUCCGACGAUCUGGCCUCCUGCUCCAAGACCCUCCCGAGUCCCCGGAAAUGGAGAGUGCAGUUCUUGGGCCCAGCCUGGCCUUCGCCAUGAGUUUGGGGAGCGAGACCCCACCUGAGACAGUGGAAUUCUCGGGUGCCAA,0.354
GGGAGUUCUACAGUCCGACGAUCUUCUCCUCUCCUGGCCCUGCUCCCAGAUUGCAGCCUCCCUGCAGUGUCUGCCCUUGCCACCUCCCAGCCUGCUGCAUGCAUGUGCAGCAUGGGCUUUUGCUCCAUCACCGUGGAAUUCUCGGGUGCCAA,8.85
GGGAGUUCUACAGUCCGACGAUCACUCGAGAGGUGGGAGGAACUCCUUGCACACACCCUGAGCUUUUGCCACUUCUAUCAUUUUUGAGCAACUCCCUCUCAGCUAAAAGGCCACCCCUUUAUCGCAUUGCUGUUGGAAUUCUCGGGUGCCAA,0.829

# Sample 3 — method: universal PBM; form: double-stranded DNA, one strand shown; medium: in vitro; tested at: not given; direction: higher = stronger binding
# Target: Sal-like protein 4, full length isoform B (SALL4, Homo sapiens, UniProt Q9UJQ4-2, residues 1-616)
# Notes: 8-mer, flanks averaged, mean of replicates
# Construct (chain): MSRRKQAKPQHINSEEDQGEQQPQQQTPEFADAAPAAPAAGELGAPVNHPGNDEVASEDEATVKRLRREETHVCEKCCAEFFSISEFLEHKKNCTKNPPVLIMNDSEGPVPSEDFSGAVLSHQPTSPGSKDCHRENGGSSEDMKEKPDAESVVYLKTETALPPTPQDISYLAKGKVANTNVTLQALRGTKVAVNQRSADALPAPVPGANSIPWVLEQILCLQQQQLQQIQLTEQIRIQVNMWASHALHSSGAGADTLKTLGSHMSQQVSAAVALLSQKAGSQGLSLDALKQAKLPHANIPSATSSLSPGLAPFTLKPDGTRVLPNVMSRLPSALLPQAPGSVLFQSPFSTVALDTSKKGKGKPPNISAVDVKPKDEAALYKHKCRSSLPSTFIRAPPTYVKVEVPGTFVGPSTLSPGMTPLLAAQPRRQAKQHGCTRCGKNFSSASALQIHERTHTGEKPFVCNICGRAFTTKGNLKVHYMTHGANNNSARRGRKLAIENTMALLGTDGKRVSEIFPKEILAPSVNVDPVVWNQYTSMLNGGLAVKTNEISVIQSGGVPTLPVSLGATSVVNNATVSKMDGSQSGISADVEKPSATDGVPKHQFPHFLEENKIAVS
Strand,E-score
ATACTCAC,0.17
AATGCTTG,-0.0477
AGCTATGG,-0.0544
AGCACCAC,-0.257
AAGAGCCT,0.00465
CTTAAGGA,0.0084
ATGCGGAG,-0.219
CGGGTGCA,-0.238
ACGTTGCC,-0.0872
GGCAGGCA,-0.18
ATTCGGAC,0.0795
GTATAAGA,0.238
AGGTGGCC,-0.258
GTCCGTTA,-0.0918
AAGCAGCC,-0.125
ATAGGCGC,0.0619
ATGCGTTC,0.0575
GGGAGGGA,-0.112
CCGTCCGC,-0.346
CAGGATGG,-0.103
CTCTATAC,0.0573
CGTCCGGC,-0.326

# Sample 4 — method: competition protein-binding microarray; form: double-stranded DNA, one strand shown; medium: in vitro; tested at: 2 µM; added: Pho4 competitor, 0.05 µM; direction: higher = stronger binding
# Target: Centromere-binding protein 1, full length, His-tagged (CBF1, Saccharomyces cerevisiae, UniProt P17106, residues 1-351)
# Sequence of UniProt P17106 (whole entry, looked up): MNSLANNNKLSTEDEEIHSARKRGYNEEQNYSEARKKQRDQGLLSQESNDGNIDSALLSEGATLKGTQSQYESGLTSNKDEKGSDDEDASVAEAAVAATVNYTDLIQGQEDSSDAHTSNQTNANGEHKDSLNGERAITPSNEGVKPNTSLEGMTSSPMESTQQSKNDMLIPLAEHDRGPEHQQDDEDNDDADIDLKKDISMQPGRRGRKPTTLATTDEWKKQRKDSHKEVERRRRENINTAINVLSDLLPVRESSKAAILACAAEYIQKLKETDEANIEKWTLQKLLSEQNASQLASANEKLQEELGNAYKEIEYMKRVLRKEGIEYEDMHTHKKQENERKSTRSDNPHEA
# Notes: whole 60-bp probe, lowest competitor level
Strand,fluorescence intensity [a.u.]
AGAAATGTTCTCCTCCACGTGGATTCGTACCGTTGTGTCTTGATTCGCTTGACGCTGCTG,473
TTTAGGTAATTTGACACCGTGCCGAAATGGCTTGGCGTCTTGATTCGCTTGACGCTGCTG,75.3
GTCTTGTCTCATTGTGAGGTGGGTGTCCCCACTTCAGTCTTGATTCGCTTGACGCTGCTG,102
GCACCGTAATCCATTAATGTGTCGCAGGCTTTCACCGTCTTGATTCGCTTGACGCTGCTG,78.6
AAATTACTAAGTTGTAGGGTGGGTGACGCCGTATGAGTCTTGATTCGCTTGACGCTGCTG,65.4
CATACCCAACCTTGAGCAGTGGGTGAAGATATTTGTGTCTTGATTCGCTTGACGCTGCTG,59
AAAGCGGTAATTTGCGAGGTGGGTGCAGATATCTATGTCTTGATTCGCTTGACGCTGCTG,74.5
AACTTTCTAGTCGACCACGTGAGTCCGCCCAGTCTTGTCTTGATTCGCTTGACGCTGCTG,1860
CTTTTTTTTCTCTCGCCCGTGCCGATCCGTCTTCGAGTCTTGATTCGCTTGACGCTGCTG,75.9
CATACCCAACCTTGCGCCGTGGGTGAAGATATTTGTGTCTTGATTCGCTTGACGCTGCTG,54.5
GTCTTGTCTCATTGTCACGCCACTTTCCCCACTTCAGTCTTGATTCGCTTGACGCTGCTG,246
TGCGCAACAACTTTTCACGTGTGGTTATGTCTAGAAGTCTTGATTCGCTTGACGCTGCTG,683
CGGTTTTTGGCGCGTTTCGTGACTCGAACACCCAGTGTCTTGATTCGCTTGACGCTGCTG,81.9
CGTCCTAGTGATTTTCACGTGCGGTCCATGAGGAAGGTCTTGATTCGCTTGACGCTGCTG,804
GTCTTGTCTCATTGCCCAGTGGGTGTCCCCACTTCAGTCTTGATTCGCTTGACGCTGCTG,68.4
TGCGCAACAACTTTTCACGTGGCCTTATGTCTAGAAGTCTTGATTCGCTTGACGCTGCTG,789
TGCGCAACAACTTGAGACGTGGGTGTATGTCTAGAAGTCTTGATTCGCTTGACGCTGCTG,61.2
TGCGCAACAACTTTTCACGTGACCTTATGTCTAGAAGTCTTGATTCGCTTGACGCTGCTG,9730
CGGGGTTAAGTTTGTCACCTTACTTGCTTGCAGCAGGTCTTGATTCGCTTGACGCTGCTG,67.5
TGCGCAACAACTTGCTTAGTGGGTGTATGTCTAGAAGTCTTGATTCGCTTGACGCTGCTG,64.9

# For quick reference, copied from above (sample 4):
Strand,fluorescence intensity [a.u.]
AGAAATGTTCTCCTCCACGTGGATTCGTACCGTTGTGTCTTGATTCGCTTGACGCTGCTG,473
CTTTTTTTTCTCTCGCCCGTGCCGATCCGTCTTCGAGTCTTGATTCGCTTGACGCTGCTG,75.9
GTCTTGTCTCATTGTCACGCCACTTTCCCCACTTCAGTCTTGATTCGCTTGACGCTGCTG,246
TGCGCAACAACTTTTCACGTGTGGTTATGTCTAGAAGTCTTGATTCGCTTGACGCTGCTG,683
CGTCCTAGTGATTTTCACGTGCGGTCCATGAGGAAGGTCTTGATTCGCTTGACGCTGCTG,804
